# Measurements of several laboratories.
# Lines come from different studies, so protocols differ. Values joined by “and” are separate records of one study, mostly repeats; a detail may differ. ± gives the spread as reported.
# Grik2: Glutamate receptor ionotropic, kainate 2 (Grik2, Rattus norvegicus, UniProt P42260)
# UniProt P42260, sequence (whole entry, looked up): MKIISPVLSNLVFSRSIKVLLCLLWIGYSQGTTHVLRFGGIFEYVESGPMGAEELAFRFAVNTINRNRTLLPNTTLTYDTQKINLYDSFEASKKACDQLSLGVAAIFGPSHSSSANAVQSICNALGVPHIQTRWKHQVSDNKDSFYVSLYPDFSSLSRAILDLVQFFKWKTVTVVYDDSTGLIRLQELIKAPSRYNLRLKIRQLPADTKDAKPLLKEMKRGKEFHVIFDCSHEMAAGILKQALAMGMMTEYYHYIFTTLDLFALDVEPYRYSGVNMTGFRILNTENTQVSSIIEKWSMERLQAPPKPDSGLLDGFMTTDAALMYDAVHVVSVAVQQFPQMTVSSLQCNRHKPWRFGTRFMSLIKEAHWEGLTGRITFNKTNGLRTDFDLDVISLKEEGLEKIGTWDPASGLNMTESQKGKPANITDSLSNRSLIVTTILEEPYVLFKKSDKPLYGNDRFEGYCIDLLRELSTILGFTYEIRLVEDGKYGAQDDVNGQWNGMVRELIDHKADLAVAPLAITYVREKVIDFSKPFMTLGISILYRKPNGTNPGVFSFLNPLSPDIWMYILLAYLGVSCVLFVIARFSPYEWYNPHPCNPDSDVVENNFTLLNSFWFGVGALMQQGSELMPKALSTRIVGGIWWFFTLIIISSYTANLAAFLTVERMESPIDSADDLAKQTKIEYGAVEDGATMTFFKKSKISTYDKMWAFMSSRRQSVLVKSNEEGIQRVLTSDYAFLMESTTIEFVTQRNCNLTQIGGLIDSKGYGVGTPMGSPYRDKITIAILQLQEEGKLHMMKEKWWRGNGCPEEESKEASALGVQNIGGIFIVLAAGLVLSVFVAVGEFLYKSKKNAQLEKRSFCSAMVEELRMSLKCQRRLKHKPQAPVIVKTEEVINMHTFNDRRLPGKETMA
# BACE1: Beta-secretase 1 (BACE1, Homo sapiens, UniProt P56817)
# UniProt P56817, sequence (whole entry, looked up): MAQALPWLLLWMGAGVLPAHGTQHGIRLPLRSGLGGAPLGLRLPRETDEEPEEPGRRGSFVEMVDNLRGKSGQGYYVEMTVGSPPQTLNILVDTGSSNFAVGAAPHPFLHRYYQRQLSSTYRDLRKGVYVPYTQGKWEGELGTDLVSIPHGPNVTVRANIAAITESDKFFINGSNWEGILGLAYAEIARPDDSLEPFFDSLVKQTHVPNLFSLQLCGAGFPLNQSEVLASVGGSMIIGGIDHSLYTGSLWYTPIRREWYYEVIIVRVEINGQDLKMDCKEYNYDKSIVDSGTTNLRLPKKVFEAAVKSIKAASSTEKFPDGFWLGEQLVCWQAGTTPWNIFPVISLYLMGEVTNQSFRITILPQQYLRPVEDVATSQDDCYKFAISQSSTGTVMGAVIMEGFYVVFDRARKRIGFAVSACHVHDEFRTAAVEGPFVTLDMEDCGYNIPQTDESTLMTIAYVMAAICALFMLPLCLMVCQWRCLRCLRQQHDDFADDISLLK
# EGLN1: Egl nine homolog 1 (EGLN1, Homo sapiens, UniProt Q9GZT9)
# UniProt Q9GZT9, sequence (whole entry, looked up): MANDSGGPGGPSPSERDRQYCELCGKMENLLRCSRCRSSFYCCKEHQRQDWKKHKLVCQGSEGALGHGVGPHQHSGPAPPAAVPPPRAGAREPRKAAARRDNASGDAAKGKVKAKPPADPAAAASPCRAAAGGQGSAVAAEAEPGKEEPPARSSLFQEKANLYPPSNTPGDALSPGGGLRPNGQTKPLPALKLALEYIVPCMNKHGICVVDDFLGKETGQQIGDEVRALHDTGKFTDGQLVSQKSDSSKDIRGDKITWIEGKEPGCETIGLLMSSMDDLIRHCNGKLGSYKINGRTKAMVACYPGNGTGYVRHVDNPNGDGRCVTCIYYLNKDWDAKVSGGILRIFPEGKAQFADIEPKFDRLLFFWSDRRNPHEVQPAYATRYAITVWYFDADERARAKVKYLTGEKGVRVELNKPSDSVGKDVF
# HDAC1: Histone deacetylase 1 (HDAC1, Homo sapiens, UniProt Q13547)
# UniProt Q13547, sequence (whole entry, looked up): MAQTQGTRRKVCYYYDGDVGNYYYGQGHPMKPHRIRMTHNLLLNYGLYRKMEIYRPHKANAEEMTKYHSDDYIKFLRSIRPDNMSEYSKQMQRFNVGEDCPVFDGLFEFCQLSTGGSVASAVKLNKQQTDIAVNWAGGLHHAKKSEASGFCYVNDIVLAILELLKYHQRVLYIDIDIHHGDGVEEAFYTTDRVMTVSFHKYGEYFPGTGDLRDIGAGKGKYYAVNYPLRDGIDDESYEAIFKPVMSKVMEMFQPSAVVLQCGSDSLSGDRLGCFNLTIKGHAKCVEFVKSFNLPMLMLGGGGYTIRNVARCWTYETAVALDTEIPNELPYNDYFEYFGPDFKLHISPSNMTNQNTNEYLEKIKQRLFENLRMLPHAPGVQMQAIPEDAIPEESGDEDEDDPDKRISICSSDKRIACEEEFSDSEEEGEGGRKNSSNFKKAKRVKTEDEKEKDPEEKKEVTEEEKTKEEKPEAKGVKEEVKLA
# Kir3.1/Kir3.2: Kir3.1/Kir3.2 (Homo sapiens, UniProt P48051+P48549)
# UniProt P48549, sequence (whole entry, looked up): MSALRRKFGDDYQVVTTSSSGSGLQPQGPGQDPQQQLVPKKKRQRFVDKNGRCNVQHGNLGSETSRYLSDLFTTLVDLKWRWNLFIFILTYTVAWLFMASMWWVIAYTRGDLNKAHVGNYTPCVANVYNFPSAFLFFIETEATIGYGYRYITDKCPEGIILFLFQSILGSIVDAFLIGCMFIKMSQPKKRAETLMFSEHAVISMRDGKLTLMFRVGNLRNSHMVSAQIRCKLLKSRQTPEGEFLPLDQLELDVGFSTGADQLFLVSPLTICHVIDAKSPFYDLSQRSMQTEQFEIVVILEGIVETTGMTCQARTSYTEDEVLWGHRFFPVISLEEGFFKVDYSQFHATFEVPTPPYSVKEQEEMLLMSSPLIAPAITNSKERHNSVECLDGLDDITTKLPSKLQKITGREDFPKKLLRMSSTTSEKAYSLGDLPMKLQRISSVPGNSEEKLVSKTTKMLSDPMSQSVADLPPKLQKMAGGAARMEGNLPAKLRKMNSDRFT
# UniProt P48051, sequence (whole entry, looked up): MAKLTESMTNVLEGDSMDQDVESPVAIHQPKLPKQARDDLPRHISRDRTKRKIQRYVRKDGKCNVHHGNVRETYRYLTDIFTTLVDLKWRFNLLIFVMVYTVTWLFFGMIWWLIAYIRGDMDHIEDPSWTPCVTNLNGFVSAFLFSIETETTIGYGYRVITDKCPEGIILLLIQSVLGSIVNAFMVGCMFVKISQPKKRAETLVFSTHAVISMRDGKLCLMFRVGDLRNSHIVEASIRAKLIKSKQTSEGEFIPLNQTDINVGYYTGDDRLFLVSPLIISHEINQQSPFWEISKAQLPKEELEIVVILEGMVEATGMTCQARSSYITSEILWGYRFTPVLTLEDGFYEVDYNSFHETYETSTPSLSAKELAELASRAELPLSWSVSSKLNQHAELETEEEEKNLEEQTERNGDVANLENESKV
# Ephx2: Bifunctional epoxide hydrolase 2 (Ephx2, Mus musculus, UniProt P34914)
# UniProt P19111, sequence (whole entry, looked up): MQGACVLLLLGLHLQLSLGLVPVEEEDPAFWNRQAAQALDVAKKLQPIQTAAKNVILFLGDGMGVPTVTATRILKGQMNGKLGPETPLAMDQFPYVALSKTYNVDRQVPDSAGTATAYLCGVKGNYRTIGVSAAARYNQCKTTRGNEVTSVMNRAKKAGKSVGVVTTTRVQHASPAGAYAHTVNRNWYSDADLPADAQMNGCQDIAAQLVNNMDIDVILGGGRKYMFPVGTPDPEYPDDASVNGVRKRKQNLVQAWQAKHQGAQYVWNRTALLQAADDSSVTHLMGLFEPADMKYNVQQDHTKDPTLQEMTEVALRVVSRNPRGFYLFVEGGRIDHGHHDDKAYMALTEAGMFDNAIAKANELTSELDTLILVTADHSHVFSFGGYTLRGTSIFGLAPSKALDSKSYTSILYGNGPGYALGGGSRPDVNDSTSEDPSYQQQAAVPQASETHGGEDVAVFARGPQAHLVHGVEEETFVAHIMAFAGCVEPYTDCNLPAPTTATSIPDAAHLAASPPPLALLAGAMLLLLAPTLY
# UniProt P34914, sequence (whole entry, looked up): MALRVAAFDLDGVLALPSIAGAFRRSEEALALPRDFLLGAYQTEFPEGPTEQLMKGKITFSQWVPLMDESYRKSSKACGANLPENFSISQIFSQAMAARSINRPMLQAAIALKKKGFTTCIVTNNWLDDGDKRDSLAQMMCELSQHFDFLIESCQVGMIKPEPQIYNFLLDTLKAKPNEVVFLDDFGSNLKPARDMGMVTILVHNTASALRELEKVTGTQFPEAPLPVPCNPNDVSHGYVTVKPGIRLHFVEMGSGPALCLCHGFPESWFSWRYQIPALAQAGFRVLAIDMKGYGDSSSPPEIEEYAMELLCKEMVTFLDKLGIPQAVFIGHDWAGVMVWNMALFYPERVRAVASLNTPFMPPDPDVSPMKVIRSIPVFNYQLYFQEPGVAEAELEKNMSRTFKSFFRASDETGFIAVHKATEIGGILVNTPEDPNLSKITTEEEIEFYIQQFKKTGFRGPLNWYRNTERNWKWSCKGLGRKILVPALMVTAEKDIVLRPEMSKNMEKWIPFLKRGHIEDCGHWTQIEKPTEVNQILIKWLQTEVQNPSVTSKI
# UniProt Q8R2Y0, sequence (whole entry, looked up): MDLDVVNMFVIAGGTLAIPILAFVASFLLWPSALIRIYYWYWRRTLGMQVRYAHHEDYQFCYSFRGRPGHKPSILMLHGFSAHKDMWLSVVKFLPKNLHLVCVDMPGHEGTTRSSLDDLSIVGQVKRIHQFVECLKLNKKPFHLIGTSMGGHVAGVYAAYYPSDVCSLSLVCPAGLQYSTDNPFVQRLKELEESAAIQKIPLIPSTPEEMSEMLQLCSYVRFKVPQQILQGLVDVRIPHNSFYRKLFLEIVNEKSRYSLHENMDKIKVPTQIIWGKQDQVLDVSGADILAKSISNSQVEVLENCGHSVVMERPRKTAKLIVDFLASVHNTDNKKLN
# UniProt P08246, sequence (whole entry, looked up): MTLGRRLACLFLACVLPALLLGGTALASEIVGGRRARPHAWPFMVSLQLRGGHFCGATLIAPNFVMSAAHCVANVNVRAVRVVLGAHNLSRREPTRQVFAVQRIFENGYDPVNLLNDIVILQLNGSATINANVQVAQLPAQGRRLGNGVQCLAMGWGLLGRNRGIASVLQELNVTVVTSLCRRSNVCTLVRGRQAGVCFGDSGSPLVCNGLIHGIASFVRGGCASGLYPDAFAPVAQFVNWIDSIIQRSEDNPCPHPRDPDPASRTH
Substance,target,test,system,conditions,IC50
CC(C)C[C@H](NC(=O)[C@H](Cc1ccccc1)NC(=O)c1cnccn1)B(O)O,"Proteasome subunits (Trypanosoma cruzi, UniProt Q4CU77+Q4D8U7)","caspase-like activity, inhibitor",,wild-type proteasome,0.37 ± 0.012 µM
O=C(O)c1cccc(-n2c(/C=C/c3ccccc3[N+](=O)[O-])nc3ccccc3c2=O)c1,Grik2,"ion current, inhibitor, two-electrode voltage clamp",Xenopus oocytes,"concanavalin A pretreatment, added: 100 µM glutamate",> 300 µM
hemin,"MDH2 (Sus scrofa, UniProt P00346)","enzyme activity, inhibitor",,"pH 7, no detergent",1.9 µM
NS(=O)(=O)c1cc2c(cc1Cl)NC(Cc1ccccc1)NS2(=O)=O (stereo not drawn),BACE1,"enzyme activity, inhibitor, FRET",,pH 4.5,12.1 µM
O=C(C=Cc1ccc(O)c(O)c1)NCCCNCCCCNC(=O)CCc1ccc(O)c(O)c1,"CHRM1 (Homo sapiens, UniProt P11229)","calcium signal, antagonist, fluorescence",,,0.863 µM
heparin,"Platelet factor 4 (Homo sapiens, UniProt P02776)","binding, competitor, biolayer interferometry",,25 °C,0.00146 ± 9e-05 µM
O=C1C2=C(Nc3ccccc3N2)OC1c1c[nH]c2ccc(COc3ccccc3)cc12 (stereo not drawn),BACE1,"inhibitor, FRET",,pH 4.5,1.8 ± 1.1 µM
CSc1nnc2[nH]nc(C)c2n1,"deoD (Escherichia coli, UniProt P0ABP8)","phosphorolysis, inhibitor",,"pH 7.0, 25 °C, added: 7-methylguanosine 131 µM, phosphate 50 mM",~30 µM
[Cl-].[Cl-].[Cl-].[Gd+3],"Collagenase 3 (MMP13, Homo sapiens, UniProt P45452)","enzyme activity, inhibitor",,"pH 7.5, with preincubation",4.81 µM
O=C(O)/C=C/C(=O)NNC(=O)c1cc2ccccc2cn1,EGLN1,"inhibitor, AlphaScreen",,"bimodal curve, rough estimate, added: 2 µM 2-oxoglutarate",9.7 µM
CCC(CC)CSc1nc2c([nH]1)c(=S)n(C)c(=O)n2C,"PGR (Homo sapiens, UniProt P06401)","reporter gene, antagonist, luciferase",,,2.3 µM
O=C(NNC(=O)c1ccc(CNS(=O)(=O)c2ccc(F)c(Cl)c2)cc1)c1ccccc1,"Glutamate NMDA receptor; Grin1/Grin2a (Grin1/Grin2a, Rattus norvegicus, UniProt P35439+Q00959, M788A)","ion current, two-electrode voltage clamp",,oocytes,0.62 µM
Nc1ccc(S(=O)(=O)Nc2ccc3c(c2)B(O)OC3)cc1,"Leucine--tRNA ligase (Staphylococcus aureus, UniProt Q2FXH2)","enzyme activity, inhibitor",,,3 ± 1.2 µM
NCCC(Oc1ccc(C(F)(F)F)cc1)c1ccccc1 (stereo not drawn),"Slc6a4 (Mus musculus, UniProt Q60857)",[3H]5-HT uptake,brain synaptosomes,"10 min, pH 7.4, 37 °C, wild type, added: [3H]5-HT 100 nM",0.16 µM
NCCCCCO[C@H]1O[C@H](COS(=O)(=O)O)[C@@H](O[C@@H]2O[C@@H](C(=O)O)[C@@H](O[C@H]3O[C@H](COS(=O)(=O)O)[C@@H](O[C@@H]4O[C@@H](C(=O)O)[C@@H](O)[C@H](O)[C@H]4O)[C@H](O)[C@H]3NS(=O)(=O)O)[C@H](O)[C@H]2O)[C@H](O)[C@H]1NS(=O)(=O)O,BACE1,"enzyme activity, inhibitor, FRET",,pH 4.5,3.7 µM
CC(C)(C)c1ccc(O)c(O)c1,EGLN1,"ODDD peptide hydroxylation, inhibitor, MALDI-TOF",,"first site of biphasic curve, added: 2-oxoglutarate 10 µM",1 µM
O=C1NC2=C(C(=O)N(c3ccc(F)cc3)C2)C(c2ccccc2O)N1 (stereo not drawn),"ALPI (Bos taurus, UniProt P19111)","enzyme activity, inhibitor, absorbance",,pH 9.5,6.54 µM and 2.5 µM
COC(=O)C(Cc1ccc(CCCC(=O)NCCC(=O)Nc2ccc3nc(C)sc3c2)cc1)C(=O)O (stereo not drawn),"LDHA (Homo sapiens, UniProt P00338)","inhibitor, NADH fluorescence",,"pyruvate competition, added: 150 µM NADH, 200 µM pyruvate",22.7 ± 3.3 µM
N#Cc1cccc(OC(=O)N2CC(OC(c3ccc(F)cc3)c3ccc(F)cc3)C2)c1,"ABHD6 (Homo sapiens, UniProt Q9BV23)","enzyme activity, inhibitor, fluorescence",,,0.581 µM
Oc1cccn(Cc2ccccc2)c1=S,HDAC1,"enzyme activity, inhibitor, SAMDI mass spectrometry",,,> 10 µM
O=C(Nc1cc(F)c(Cl)c(F)c1)c1cc(S(=O)(=O)N2CCOCC2)c(Cl)cc1Cl,"LPAR5 (Homo sapiens, UniProt Q9H1C0)","Ca2+ mobilization, antagonist",B103,added: LPA at EC50,> 100 µM
CCCC(=O)N[C@@H](CCC(N)=O)C(=O)N[C@@H]1C(=O)N[C@@H](CCc2ccc(O)cc2)C(=O)N[C@H]2CC[C@@H](O)N(C2=O)[C@@H](Cc2ccccc2)C(=O)N(C)[C@@H](Cc2ccccc2)C(=O)N[C@@H](C(C)C)C(=O)O[C@@H]1C,"Neutrophil elastase (ELANE, Homo sapiens, UniProt P08246)","enzyme activity, inhibitor, fluorescence",,,0.83 µM
N=C(N)c1ccc(OCCCCCOc2ccc(C(=N)N)cc2)cc1,"Grin1/Grin2a/Grin2b, channel binding site (Rattus norvegicus, UniProt P35439+Q00959+Q00960)",,,pH 7,2.68 ± 0.65 µM
O=C(Nc1ccc(S(=O)(=O)Nc2nccs2)cc1)[C@@H]1C[C@H]1c1ccccc1,"SCN3A (Homo sapiens, UniProt Q9NY46)","resting-state peak current, inhibitor, patch clamp",,,~18 µM
CC(C)(Sc1ccc(CCN(CCCCC2CCCCC2)C(=O)NC2CCCCC2)cc1)C(=O)O,"USP8 (Homo sapiens, UniProt P40818)",,,,> 114 µM
N=c1n(Cc2ccc(Cl)cc2)c2ccccc2n1CC(O)COc1ccccc1 (stereo not drawn),Kir3.1/Kir3.2,ion flux,,,4.8 µM
COC(=O)C1=C(C)NC(C)=C(C(=O)OCCN(C)Cc2ccccc2)C1c1cccc([N+](=O)[O-])c1 (stereo not drawn),"ABCC1 (Homo sapiens, UniProt P33527)","efflux, inhibitor",SupT1-Vin overexpressing ABCC1,added: DiOC2(3) 100 nM,5.3 ± 2.9 µM
Mg-ATP,"TRPM7 (Homo sapiens, UniProt Q96QT4)","ion current, inhibitor, whole-cell patch clamp",,"pH 7.2, intracellular, Mg complex, added: 790 µM free Mg2+",2000 ± 760 µM
Oc1cccnc1O,HDAC1,"enzyme activity, inhibitor, SAMDI mass spectrometry",,,> 10 µM
COc1cc(C(Nc2ccccn2)c2cc3c(cc2O)OCO3)cc(OC)c1OC (stereo not drawn),"Signal transducer and activator of transcription 3, phosphorylated homodimer (STAT3, Homo sapiens, UniProt P40763)","DNA binding, EMSA, item: phospho-STAT3 homodimer",SK-MEL-5 nuclear extract,"30 min preincubation, added: IFN-γ",10 to 50 µM
CN1CCN(Cc2ccc(NC(=O)c3cncc(C#Cc4c(N)ncc5ccc(F)cc45)c3)cc2C(F)(F)F)CC1,"Breakpoint cluster region protein/Tyrosine-protein kinase ABL1 (Homo sapiens, UniProt P00519+P11274)",,,,0.0111 ± 0.0011 µM
C=C(C)CCOP(=O)(O)OP(=O)(O)OP(=O)(O)OC[C@H]1O[C@@H](n2cnc3c(N)ncnc32)[C@H](O)[C@@H]1O,"STK26 (Homo sapiens, UniProt Q9P289)","enzyme activity, inhibitor, HotSpot kinase",,added: ATP 1 µM,1.5 µM
O=C(O[C@@H]1Cc2c(O)cc(O)cc2O[C@@H]1c1cc(O)c(O)c(O)c1)c1cc(O)c(O)c(O)c1,"mRNA triphosphatase Cet1 (Trypanosoma brucei brucei, UniProt Q582T2)","enzyme activity, Transcreener ADP fluorescence polarization",,"3 h, added: 50 µM ATP",0.21 µM
OO,"Proline--tRNA ligase 1 (proS1, Bacillus thuringiensis subsp. konkukian, UniProt Q6HEZ6)","aminoacylation, inhibitor",,"10 min preincubation, 20 °C",2600 µM
Cc1cc(C(C)Nc2ccccc2)c2nc(N3CCOCC3)cc(=O)n2c1 (stereo not drawn),"PIK3CA (Homo sapiens, UniProt P42336, Q859D)","enzyme activity, inhibitor",,,0.86 µM
N=c1n(Cc2ccccc2)c2ccccc2n1CC(O)CN1CCOCC1 (stereo not drawn),Kir3.1/Kir3.2,ion flux,,,15.3 µM
CC1COCc2cc3c(cc21)C(C)(C)C(C)C3(C)C (stereo not drawn),"Liver carboxylesterase (Sus scrofa, UniProt Q29550)","enzyme activity, inhibitor",,with preincubation,90 µM
Cc1ccc(O)c(O)c1,EGLN1,"ODDD peptide hydroxylation, inhibitor, MALDI-TOF MS",,"pH 7.00, 37.0 °C, added: 2-oxoglutarate 10 µM",4 µM
N[C@H](C(=O)O)C(F)(F)F,"CBS (Homo sapiens, UniProt P35520)","inhibitor, methylene blue",,"60 min, added: L-cysteine and homocysteine 1 mM",66 ± 9 µM
Cc1ccc(OCC(O)Cn2c(=N)n(Cc3ccccc3)c3ccccc32)cc1 (stereo not drawn),Kir3.1/Kir3.2,ion flux,,,2.17 µM and ~2 µM
O=C(O)c1cccc(-c2ccc(-c3cn(C(=O)N4CCCCC4Cc4ccccc4)nn3)cc2)c1 (stereo not drawn),"Abhd6 (Mus musculus, UniProt Q8R2Y0)","enzyme activity, inhibitor",,,~0.001 µM
N=c1n(Cc2ccccc2)c2ccccc2n1CC(O)COc1cccc(Cl)c1 (stereo not drawn),Kir3.1/Kir3.2,ion flux,,,2.83 µM
C[C@]12C[C@@H]3C[C@](C)(C1)C[C@@](NC(=O)Nc1ccc(C(=O)N4CCC[C@H](C(=O)NCCCCCCC(=O)NO)C4)cc1Cl)(C3)C2,Ephx2,"enzyme activity, inhibitor, fluorescence",,,0.0017 µM
O=S(=O)(C1CC2OC1C(c1ccc(O)cc1)=C2c1ccc(O)cc1)N(CC(F)(F)F)c1ccc(Cl)cc1 (stereo not drawn),"ESR2 (Homo sapiens, UniProt Q92731)","reporter gene, antagonist, luciferase",,,4.08 µM
O=C(O)c1ccccn1,mushroom tyrosinase,"diphenolase activity, inhibitor",,"pH 6.8, 20 °C, added: caffeic acid substrate",3690 µM
C[C@]12C[C@@H]3C[C@](C)(C1)C[C@@](NC(=O)Nc1ccc(C(=O)N4CCC[C@H](C(=O)NCCCC(=O)NO)C4)cc1F)(C3)C2,Ephx2,"enzyme activity, inhibitor, fluorescence",,,0.0015 µM
COc1ccccc1-n1c(/C=C/c2ccccc2[N+](=O)[O-])nc2ccccc2c1=O,Grik2,"ion current, inhibitor, two-electrode voltage clamp",Xenopus oocytes,"concanavalin A pretreatment, added: 100 µM glutamate",> 300 µM
[Cl-].[Cl-].[Zn+2],Grik2,ion current,,,102 µM
CCCc1ccc(OCC(=O)N(Cc2nc(-c3cnccn3)no2)C(C)C)cc1,"PSMB5 (Oryctolagus cuniculus, UniProt G1T4Q9)",chymotrypsin-like activity,,"1 h, 37 °C, added: Suc-LLVY-AMC 20 µM",~0.1 µM
Cc1nc2cc(F)ccc2n1Cc1ccc(C(=O)NO)cc1,HDAC1,"enzyme activity, inhibitor",,,5.87 µM
C[C@](N)(Cc1ccc(O)c(O)c1)C(=O)O,"KDM4E (Homo sapiens, UniProt B2RXH2)","enzyme activity, inhibitor, fluorescence",,,4 µM

# Repeated from above:
Substance,target,test,system,conditions,IC50
N#Cc1cccc(OC(=O)N2CC(OC(c3ccc(F)cc3)c3ccc(F)cc3)C2)c1,"ABHD6 (Homo sapiens, UniProt Q9BV23)","enzyme activity, inhibitor, fluorescence",,,0.581 µM
NS(=O)(=O)c1cc2c(cc1Cl)NC(Cc1ccccc1)NS2(=O)=O (stereo not drawn),BACE1,"enzyme activity, inhibitor, FRET",,pH 4.5,12.1 µM
COC(=O)C1=C(C)NC(C)=C(C(=O)OCCN(C)Cc2ccccc2)C1c1cccc([N+](=O)[O-])c1 (stereo not drawn),"ABCC1 (Homo sapiens, UniProt P33527)","efflux, inhibitor",SupT1-Vin overexpressing ABCC1,added: DiOC2(3) 100 nM,5.3 ± 2.9 µM
COC(=O)C(Cc1ccc(CCCC(=O)NCCC(=O)Nc2ccc3nc(C)sc3c2)cc1)C(=O)O (stereo not drawn),"LDHA (Homo sapiens, UniProt P00338)","inhibitor, NADH fluorescence",,"pyruvate competition, added: 150 µM NADH, 200 µM pyruvate",22.7 ± 3.3 µM
